{"data": "Measurements from different studies", "note": "Each numbered part is a random draw from the data of one study; scales do not carry over between parts. Positions count from the first letter of the parent shown."}
{"data": "Study 1", "target": "CCND3, cyclin fold, Cln2 fusion (human)", "technique": "yeast growth competition, sequencing", "matrix": "yeast", "notes": "weak parent motif", "relative to": "not given", "reading": "higher = stronger binding", "starting sequence": "CDC6 docking peptide (human); TLKGRRLVFDNQL"}
{"Change": "V8G", "normalised enrichment score": 0.134}
{"Change": "D10I", "normalised enrichment score": 0.178}
{"Change": "G4W", "normalised enrichment score": 0.0863}
{"Change": "K3Q", "normalised enrichment score": 0.139}
{"Change": "D10K", "normalised enrichment score": 0.0785}
{"Change": "V8W", "normalised enrichment score": 0.118}
{"Change": "L2Y", "normalised enrichment score": 0.0532}
{"Change": "T1N", "normalised enrichment score": 0.136}
{"Change": "L2Q", "normalised enrichment score": 0.0997}
{"Change": "D10R", "normalised enrichment score": 0.112}
{"Change": "R6Y", "normalised enrichment score": 0.125}
{"Change": "Q12N", "normalised enrichment score": 0.0984}
{"Change": "T1A", "normalised enrichment score": 0.0878}
{"Change": "L7W", "normalised enrichment score": 0.179}
{"Change": "V8P", "normalised enrichment score": 0.128}
{"Change": "T1S", "normalised enrichment score": 0.0977}
{"Change": "D10C", "normalised enrichment score": 0.163}
{"Change": "V8R", "normalised enrichment score": 0.147}
{"Change": "R6W", "normalised enrichment score": -0.0285}
{"Change": "R5I", "normalised enrichment score": 0.0373}
{"Change": "L2V", "normalised enrichment score": 0.117}
{"Change": "L7G", "normalised enrichment score": 0.0972}
{"Change": "F9D", "normalised enrichment score": 0.11}
{"Change": "L7V", "normalised enrichment score": 0.0518}
{"Change": "R5F", "normalised enrichment score": 0.0997}
{"data": "Study 2", "target": "ABI1, truncated, D143A, DHFR fusion (Arabidopsis thaliana)", "technique": "DHFR PCA, deep sequencing", "matrix": "yeast", "notes": "methotrexate growth selection, single substitutions", "together with": "(+)-ABA 0.032 µM", "relative to": "wild-type fitted maximum", "reading": "higher = stronger binding", "starting sequence": "PYL1, truncated, DHFR fusion (Arabidopsis thaliana); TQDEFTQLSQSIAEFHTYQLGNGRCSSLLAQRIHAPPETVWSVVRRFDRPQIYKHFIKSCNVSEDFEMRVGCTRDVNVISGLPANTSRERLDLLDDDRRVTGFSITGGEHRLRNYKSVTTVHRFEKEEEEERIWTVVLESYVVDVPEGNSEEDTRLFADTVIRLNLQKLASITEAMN; partner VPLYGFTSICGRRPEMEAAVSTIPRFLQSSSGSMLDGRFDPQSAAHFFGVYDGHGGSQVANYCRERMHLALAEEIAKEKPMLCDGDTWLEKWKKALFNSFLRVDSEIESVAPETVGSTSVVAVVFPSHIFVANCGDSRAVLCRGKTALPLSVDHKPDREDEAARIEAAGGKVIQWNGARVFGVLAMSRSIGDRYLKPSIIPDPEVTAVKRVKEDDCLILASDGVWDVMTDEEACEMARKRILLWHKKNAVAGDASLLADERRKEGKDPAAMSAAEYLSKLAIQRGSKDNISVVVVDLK"}
{"Change": "K168F", "relative binding score [%]": -9.72}
{"Change": "S171D", "relative binding score [%]": 30.3}
{"Change": "P50F", "relative binding score [%]": -3.63}
{"Change": "S9G", "relative binding score [%]": 19.2}
{"Change": "T86D", "relative binding score [%]": 8.4}
{"Change": "L112W", "relative binding score [%]": 4.02}
{"Change": "G148Q", "relative binding score [%]": -0.67}
{"Change": "R163T", "relative binding score [%]": 14}
{"Change": "T173H", "relative binding score [%]": 2.22}
{"Change": "T101L", "relative binding score [%]": 74.4}
{"Change": "Q167A", "relative binding score [%]": 25.5}
{"Change": "A84K", "relative binding score [%]": 37.3}
{"Change": "C25R", "relative binding score [%]": -3.51}
{"Change": "R32N", "relative binding score [%]": -8.63}
{"Change": "G107T", "relative binding score [%]": 2.96}
{"Change": "I57W", "relative binding score [%]": 1.28}
{"Change": "E174N", "relative binding score [%]": -2.14}
{"data": "Study 3", "target": "Histone acetyltransferase KAT6A, winged helix 1, GST fusion (KAT6A, Homo sapiens, UniProt Q92794, residues 1-85)", "technique": "protein binding microarray", "molecule type": "double-stranded DNA, one strand shown", "matrix": "in vitro", "concentration": "not given", "notes": "8-mer, flanks averaged, mean of 2 arrays, mostly near background", "relative to": "not given", "reading": "higher = stronger binding", "Residues (chain)": "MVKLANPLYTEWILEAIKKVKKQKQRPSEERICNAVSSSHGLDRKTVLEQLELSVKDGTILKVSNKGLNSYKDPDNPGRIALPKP"}
{"Sequence": "ACGGCACA", "E-score": 0.185}
{"Sequence": "GTATCCAC", "E-score": -0.118}
{"Sequence": "ACCATTGA", "E-score": -0.103}
{"Sequence": "ACGCAAGT", "E-score": 0.0494}
{"Sequence": "CCGTGCGA", "E-score": 0.315}
{"Sequence": "CTAACCCA", "E-score": -0.122}
{"Sequence": "CACTGTGC", "E-score": 0.0672}
{"Sequence": "GTCAAAAA", "E-score": -0.242}
{"Sequence": "AGAATTTG", "E-score": -0.229}
{"Sequence": "GGTTCCAC", "E-score": -0.0882}
{"Sequence": "AATTTATC", "E-score": -0.0674}
{"Sequence": "TACTTTGA", "E-score": -0.327}
{"Sequence": "GTGGTAGA", "E-score": -0.118}
{"Sequence": "ACATTGGG", "E-score": -0.201}
{"Sequence": "AATTTTAT", "E-score": 0.0418}
{"Sequence": "CCGGTTTC", "E-score": 0.242}
{"Sequence": "AGAGCCGG", "E-score": 0.245}
{"Sequence": "AGACTTAG", "E-score": -0.16}
{"Sequence": "ATTGGCAG", "E-score": -0.0792}
{"Sequence": "CACATCCC", "E-score": 0.00298}
{"Sequence": "AACTAACG", "E-score": 0.125}
{"Sequence": "CAGGCGAG", "E-score": -0.194}
{"data": "Study 4", "target": "Max-binding protein MNT, bHLH-zipper, MAX partner unstated (MNT, Homo sapiens, UniProt Q99583, residues 220-300)", "technique": "protein-binding microarray", "molecule type": "double-stranded DNA, one strand shown", "matrix": "in vitro", "concentration": "not given", "notes": "k-mer, scored over probes, only values ≥0.25", "reading": "higher = stronger binding", "Target sequence (chain)": "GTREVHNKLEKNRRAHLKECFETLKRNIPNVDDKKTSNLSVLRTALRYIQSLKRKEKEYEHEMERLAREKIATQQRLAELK"}
{"Sequence": "CCCCGCCG", "E-score": 0.338}
{"Sequence": "CCAGGCAC", "E-score": 0.298}
{"Sequence": "CGTGATTC", "E-score": 0.3}
{"Sequence": "ATGTGACC", "E-score": 0.327}
{"Sequence": "ACGCGACG", "E-score": 0.279}
{"Sequence": "CATGTGGC", "E-score": 0.472}
{"Sequence": "CCACCCCA", "E-score": 0.398}
{"Sequence": "ACACGCCG", "E-score": 0.384}
{"Sequence": "ATGCGCGG", "E-score": 0.252}
{"Sequence": "CGTGTAGA", "E-score": 0.279}
{"Sequence": "ACGTGGGA", "E-score": 0.438}
{"Sequence": "CACGCCGA", "E-score": 0.357}
{"Sequence": "CACGCTGG", "E-score": 0.382}
{"Sequence": "GCGCACGC", "E-score": 0.401}
{"Sequence": "ACATGCGT", "E-score": 0.446}
{"Sequence": "ACGTGATC", "E-score": 0.384}
{"Sequence": "CGTGCGCC", "E-score": 0.397}
{"Sequence": "ACCTCATG", "E-score": 0.397}
{"Sequence": "CGTGGGAG", "E-score": 0.322}
{"Sequence": "ACCCGCCC", "E-score": 0.34}
{"Sequence": "ACCACGAG", "E-score": 0.415}
{"Sequence": "CCGCGCGC", "E-score": 0.285}
{"Sequence": "CGTGGTCC", "E-score": 0.353}
{"Sequence": "CCCACGCC", "E-score": 0.364}
{"data": "Study 5", "target": "CRIPT, C-terminal peptide", "technique": "DHFR complementation, deep sequencing", "matrix": "yeast", "notes": "single substitutions, model-inferred values", "relative to": "wild type", "reading": "higher = weaker binding", "starting sequence": "ERBIN, PDZ domain 1 (human); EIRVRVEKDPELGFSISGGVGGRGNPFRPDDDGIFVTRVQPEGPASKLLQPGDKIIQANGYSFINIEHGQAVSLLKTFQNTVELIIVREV; partner TKNYKQTSV"}
{"Change": "I16G", "binding free energy change": "1.47 kcal/mol"}
{"Change": "F35W", "binding free energy change": "0.276 kcal/mol"}
{"Change": "D32T", "binding free energy change": "0.232 kcal/mol"}
{"Change": "I85S", "binding free energy change": "0.023 kcal/mol"}
{"Change": "N59C", "binding free energy change": "0.173 kcal/mol"}
{"Change": "T77Q", "binding free energy change": "0.0161 kcal/mol"}
{"Change": "E42R", "binding free energy change": "0.0361 kcal/mol"}
{"Change": "N80I", "binding free energy change": "0.186 kcal/mol"}
{"Change": "D32R", "binding free energy change": "0.439 kcal/mol"}
{"Change": "P41S", "binding free energy change": "0.301 kcal/mol"}
{"Change": "L75C", "binding free energy change": "-0.0675 kcal/mol"}
{"Change": "Q57H", "binding free energy change": "0.0976 kcal/mol"}
{"Change": "V36R", "binding free energy change": "0.583 kcal/mol"}
{"Change": "N80E", "binding free energy change": "-0.0471 kcal/mol"}
{"data": "Study 6", "target": "HLF, bZIP domain (human)", "technique": "DHFR protein complementation", "matrix": "yeast", "notes": "single substitutions, most at no-binding floor", "relative to": "wild-type JUN-FOS pair", "reading": "higher = stronger binding", "starting sequence": "JUN, bZIP domain (human); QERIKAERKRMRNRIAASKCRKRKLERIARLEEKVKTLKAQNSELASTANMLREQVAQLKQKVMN; partner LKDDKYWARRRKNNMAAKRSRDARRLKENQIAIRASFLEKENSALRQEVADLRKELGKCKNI"}
{"Change": "E54S", "binding fitness": "-1.35 natural log"}
{"Change": "M51W", "binding fitness": "-1.42 natural log"}
{"Change": "E44V", "binding fitness": "-1.46 natural log"}
{"Change": "A40L", "binding fitness": "-1.4 natural log"}
{"Change": "R53H", "binding fitness": "-1.55 natural log"}
{"Change": "R53K", "binding fitness": "-1.46 natural log"}
{"Change": "E44M", "binding fitness": "-1.45 natural log"}
{"Change": "R30Y", "binding fitness": "-1.48 natural log"}
{"Change": "R30A", "binding fitness": "-1.28 natural log"}
{"Change": "E44R", "binding fitness": "-1.4 natural log"}
{"Change": "K39N", "binding fitness": "-1.39 natural log"}
{"Change": "E32N", "binding fitness": "-1.51 natural log"}
{"Change": "S43P", "binding fitness": "-1.49 natural log"}
{"Change": "E54I", "binding fitness": "-1.57 natural log"}
{"Change": "S43L", "binding fitness": "-1.35 natural log"}
{"Change": "E32D", "binding fitness": "-1.49 natural log"}
{"Change": "A40V", "binding fitness": "-1.5 natural log"}
{"Change": "L38V", "binding fitness": "-1.39 natural log"}
{"Change": "Q55V", "binding fitness": "-1.29 natural log"}
{"note": "Some of these lines once more (study 5):"}
{"Change": "I16G", "binding free energy change": "1.47 kcal/mol"}
{"Change": "F35W", "binding free energy change": "0.276 kcal/mol"}
{"Change": "D32T", "binding free energy change": "0.232 kcal/mol"}
{"Change": "I85S", "binding free energy change": "0.023 kcal/mol"}
{"Change": "N59C", "binding free energy change": "0.173 kcal/mol"}
{"Change": "T77Q", "binding free energy change": "0.0161 kcal/mol"}
{"Change": "E42R", "binding free energy change": "0.0361 kcal/mol"}
{"Change": "N80I", "binding free energy change": "0.186 kcal/mol"}
{"Change": "D32R", "binding free energy change": "0.439 kcal/mol"}
{"Change": "P41S", "binding free energy change": "0.301 kcal/mol"}
